Experimental data pooled from the literature.
Protocols differ between the studies behind these lines. ± gives the spread as reported.
IDO1: Indoleamine 2,3-dioxygenase 1 (IDO1, Homo sapiens, UniProt P14902)

Amino acid sequences for entries named in this document (tags omitted). Residues count along the entry.
UniProt Q00961, 20-1237 limits assumed: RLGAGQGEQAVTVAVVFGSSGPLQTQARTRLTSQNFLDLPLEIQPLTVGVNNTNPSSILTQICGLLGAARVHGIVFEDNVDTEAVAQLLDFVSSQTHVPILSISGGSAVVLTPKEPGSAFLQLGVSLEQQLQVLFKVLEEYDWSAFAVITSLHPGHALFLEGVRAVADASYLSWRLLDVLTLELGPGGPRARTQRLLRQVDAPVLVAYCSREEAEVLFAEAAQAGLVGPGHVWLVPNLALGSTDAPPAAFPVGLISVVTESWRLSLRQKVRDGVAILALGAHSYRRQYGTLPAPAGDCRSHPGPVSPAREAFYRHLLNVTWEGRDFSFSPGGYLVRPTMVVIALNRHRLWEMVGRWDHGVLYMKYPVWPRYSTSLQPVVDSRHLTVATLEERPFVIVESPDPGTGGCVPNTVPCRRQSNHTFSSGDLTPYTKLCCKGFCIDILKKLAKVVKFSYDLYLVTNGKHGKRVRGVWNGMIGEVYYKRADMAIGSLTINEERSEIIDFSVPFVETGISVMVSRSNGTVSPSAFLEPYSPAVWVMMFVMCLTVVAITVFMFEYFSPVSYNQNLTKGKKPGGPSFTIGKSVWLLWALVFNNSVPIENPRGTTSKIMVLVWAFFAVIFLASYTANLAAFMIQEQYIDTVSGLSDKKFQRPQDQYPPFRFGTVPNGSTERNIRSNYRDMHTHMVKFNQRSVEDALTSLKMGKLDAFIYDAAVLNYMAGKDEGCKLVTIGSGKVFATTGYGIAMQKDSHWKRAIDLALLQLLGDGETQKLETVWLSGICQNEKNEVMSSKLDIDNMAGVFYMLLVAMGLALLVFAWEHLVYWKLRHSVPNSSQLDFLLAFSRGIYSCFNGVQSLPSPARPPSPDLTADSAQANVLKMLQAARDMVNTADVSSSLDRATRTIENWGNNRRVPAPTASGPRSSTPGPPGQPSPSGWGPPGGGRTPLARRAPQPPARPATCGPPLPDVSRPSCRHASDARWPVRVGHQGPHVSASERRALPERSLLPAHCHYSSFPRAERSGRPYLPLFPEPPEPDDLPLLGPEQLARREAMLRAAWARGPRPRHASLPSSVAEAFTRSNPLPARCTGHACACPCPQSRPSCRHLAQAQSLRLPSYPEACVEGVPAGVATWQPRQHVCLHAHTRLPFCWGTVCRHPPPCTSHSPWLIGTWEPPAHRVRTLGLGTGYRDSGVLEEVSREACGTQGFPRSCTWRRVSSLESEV
UniProt P51812, 68-327 limits assumed: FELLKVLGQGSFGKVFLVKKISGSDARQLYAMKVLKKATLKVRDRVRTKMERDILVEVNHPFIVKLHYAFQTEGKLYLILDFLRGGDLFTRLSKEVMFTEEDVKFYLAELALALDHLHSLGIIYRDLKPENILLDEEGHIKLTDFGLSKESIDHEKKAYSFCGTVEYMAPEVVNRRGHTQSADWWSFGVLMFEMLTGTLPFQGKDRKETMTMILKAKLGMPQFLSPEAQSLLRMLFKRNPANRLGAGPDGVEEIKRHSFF
UniProt Q9Y3Z3, whole entry: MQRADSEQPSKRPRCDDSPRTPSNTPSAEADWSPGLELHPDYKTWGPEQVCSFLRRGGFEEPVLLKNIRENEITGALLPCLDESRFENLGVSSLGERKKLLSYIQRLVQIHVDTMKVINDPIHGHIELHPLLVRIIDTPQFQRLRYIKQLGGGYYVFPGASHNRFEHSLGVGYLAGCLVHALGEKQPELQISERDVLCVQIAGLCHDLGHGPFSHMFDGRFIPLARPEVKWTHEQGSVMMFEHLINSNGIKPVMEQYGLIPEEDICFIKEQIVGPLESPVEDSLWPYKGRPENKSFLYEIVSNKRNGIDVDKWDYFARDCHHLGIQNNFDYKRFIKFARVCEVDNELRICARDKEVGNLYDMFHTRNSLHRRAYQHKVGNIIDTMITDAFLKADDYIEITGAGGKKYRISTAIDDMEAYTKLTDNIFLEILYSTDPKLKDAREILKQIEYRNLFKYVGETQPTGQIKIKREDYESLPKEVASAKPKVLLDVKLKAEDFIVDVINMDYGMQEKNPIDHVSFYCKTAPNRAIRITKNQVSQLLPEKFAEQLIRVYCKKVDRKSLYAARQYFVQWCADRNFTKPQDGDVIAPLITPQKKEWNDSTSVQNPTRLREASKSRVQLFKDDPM
UniProt Q04609, whole entry: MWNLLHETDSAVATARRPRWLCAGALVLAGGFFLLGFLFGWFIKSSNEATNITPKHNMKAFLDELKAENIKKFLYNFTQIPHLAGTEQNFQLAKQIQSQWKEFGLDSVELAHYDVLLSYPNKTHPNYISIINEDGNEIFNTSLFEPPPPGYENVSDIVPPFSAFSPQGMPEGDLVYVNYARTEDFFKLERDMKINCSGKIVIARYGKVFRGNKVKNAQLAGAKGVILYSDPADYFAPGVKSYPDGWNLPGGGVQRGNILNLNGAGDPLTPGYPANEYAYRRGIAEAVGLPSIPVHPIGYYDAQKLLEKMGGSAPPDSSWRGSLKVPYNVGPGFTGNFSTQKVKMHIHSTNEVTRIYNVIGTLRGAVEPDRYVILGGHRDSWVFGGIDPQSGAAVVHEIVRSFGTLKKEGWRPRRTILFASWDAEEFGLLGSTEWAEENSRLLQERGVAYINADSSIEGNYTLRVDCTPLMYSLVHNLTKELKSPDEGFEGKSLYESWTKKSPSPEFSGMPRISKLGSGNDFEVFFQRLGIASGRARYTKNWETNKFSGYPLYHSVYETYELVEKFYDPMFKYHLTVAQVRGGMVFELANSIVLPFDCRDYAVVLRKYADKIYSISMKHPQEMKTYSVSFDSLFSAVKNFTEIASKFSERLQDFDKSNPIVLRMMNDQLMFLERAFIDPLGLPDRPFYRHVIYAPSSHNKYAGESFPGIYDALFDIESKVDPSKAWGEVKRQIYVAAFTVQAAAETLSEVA
UniProt P29466, whole entry, looked up: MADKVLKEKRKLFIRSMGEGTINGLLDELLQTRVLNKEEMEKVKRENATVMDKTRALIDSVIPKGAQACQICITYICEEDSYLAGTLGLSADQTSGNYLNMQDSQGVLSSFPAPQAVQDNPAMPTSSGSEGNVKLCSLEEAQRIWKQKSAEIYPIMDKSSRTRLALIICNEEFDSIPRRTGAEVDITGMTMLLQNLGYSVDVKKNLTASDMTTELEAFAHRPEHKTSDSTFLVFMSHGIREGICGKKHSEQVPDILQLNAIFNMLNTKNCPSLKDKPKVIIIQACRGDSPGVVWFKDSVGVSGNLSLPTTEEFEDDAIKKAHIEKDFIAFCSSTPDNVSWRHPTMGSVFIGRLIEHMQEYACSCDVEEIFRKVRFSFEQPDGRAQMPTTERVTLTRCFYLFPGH
UniProt P26038, whole entry, looked up: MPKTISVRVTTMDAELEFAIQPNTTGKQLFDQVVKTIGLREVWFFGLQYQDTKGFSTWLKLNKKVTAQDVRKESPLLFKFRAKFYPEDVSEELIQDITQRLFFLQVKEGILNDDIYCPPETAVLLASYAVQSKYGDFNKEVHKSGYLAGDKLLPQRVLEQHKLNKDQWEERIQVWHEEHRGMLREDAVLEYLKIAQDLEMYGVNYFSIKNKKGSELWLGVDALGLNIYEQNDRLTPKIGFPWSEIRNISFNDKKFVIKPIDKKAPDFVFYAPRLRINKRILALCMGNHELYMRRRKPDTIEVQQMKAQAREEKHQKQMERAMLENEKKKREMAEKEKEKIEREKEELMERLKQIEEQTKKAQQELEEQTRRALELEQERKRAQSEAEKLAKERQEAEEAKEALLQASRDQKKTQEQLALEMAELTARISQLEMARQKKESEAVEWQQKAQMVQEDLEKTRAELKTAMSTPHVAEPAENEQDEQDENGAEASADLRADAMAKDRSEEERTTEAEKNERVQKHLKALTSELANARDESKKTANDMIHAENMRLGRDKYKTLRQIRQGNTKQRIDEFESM
UniProt O43353, whole entry: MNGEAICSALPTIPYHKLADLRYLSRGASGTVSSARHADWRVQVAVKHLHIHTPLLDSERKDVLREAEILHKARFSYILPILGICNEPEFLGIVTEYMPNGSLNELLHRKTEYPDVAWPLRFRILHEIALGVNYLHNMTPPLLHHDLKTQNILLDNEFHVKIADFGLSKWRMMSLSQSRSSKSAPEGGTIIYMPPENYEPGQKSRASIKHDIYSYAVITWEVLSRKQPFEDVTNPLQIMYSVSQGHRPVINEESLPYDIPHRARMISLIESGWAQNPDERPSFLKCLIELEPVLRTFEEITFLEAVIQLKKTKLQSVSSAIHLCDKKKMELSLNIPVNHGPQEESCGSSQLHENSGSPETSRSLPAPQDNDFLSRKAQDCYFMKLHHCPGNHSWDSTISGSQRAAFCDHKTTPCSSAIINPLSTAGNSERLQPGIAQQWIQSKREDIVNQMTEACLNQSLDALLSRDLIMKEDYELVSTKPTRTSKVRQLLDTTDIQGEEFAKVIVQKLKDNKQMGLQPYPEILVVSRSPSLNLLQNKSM
UniProt P22455, 22-802 limits assumed: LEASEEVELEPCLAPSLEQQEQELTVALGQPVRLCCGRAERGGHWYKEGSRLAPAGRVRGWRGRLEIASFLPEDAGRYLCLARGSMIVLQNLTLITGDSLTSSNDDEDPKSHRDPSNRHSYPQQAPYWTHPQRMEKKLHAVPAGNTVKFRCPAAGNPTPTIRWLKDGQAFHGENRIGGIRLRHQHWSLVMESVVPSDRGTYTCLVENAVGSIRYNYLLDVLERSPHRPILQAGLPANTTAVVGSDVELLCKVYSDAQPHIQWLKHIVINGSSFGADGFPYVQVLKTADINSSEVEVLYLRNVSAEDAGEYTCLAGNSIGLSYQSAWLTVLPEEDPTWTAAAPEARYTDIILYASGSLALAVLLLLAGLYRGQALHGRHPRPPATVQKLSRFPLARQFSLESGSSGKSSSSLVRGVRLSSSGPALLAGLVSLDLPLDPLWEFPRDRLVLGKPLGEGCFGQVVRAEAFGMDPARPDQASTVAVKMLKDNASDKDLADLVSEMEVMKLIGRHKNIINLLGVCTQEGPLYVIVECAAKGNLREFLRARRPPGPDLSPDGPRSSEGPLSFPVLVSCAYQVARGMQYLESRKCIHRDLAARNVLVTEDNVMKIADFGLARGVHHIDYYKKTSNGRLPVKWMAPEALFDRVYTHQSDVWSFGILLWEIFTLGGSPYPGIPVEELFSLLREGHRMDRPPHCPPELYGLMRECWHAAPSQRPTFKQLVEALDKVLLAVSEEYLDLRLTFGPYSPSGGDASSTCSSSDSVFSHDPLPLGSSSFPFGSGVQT
UniProt Q92630, whole entry: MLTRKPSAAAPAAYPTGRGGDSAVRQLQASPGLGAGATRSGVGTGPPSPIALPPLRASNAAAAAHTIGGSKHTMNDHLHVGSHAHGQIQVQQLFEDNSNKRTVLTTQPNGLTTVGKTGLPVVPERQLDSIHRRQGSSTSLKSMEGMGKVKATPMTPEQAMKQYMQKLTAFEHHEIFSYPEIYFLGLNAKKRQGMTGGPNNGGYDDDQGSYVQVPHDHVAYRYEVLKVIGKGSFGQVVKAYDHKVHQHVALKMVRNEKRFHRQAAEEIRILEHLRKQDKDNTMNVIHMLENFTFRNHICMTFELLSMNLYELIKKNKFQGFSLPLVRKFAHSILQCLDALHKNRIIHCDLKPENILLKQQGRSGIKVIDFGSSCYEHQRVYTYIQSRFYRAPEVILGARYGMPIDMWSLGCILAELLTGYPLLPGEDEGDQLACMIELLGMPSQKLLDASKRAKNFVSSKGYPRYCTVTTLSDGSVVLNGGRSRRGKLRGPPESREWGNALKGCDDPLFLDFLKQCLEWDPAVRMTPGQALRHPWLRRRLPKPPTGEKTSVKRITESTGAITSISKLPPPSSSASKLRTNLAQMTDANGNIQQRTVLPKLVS
UniProt P00558, whole entry: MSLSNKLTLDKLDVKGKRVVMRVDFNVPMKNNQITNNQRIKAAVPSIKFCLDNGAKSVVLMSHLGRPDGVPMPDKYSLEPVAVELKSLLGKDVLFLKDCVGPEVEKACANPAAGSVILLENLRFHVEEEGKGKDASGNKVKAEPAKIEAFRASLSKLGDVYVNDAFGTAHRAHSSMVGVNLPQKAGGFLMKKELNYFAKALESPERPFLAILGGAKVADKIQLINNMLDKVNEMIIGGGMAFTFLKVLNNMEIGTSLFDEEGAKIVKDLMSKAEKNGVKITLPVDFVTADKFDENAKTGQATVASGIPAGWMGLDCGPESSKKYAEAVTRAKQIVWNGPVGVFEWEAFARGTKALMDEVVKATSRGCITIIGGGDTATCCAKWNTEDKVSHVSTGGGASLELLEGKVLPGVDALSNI
UniProt Q96RJ0, whole entry: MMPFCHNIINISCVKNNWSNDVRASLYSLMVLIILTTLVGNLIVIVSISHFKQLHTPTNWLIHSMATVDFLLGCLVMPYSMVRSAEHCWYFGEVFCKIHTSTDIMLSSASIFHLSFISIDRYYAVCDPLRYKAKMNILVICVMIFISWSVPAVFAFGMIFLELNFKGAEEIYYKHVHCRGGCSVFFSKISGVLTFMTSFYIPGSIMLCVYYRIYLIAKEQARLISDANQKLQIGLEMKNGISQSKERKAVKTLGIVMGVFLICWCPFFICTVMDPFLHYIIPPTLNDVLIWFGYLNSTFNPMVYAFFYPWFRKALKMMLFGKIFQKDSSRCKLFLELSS

Structure (SMILES) = COc1ccc(C(=O)N2C[C@H](O)C[C@H]2C(=O)NCc2ccc(Cl)cc2)cc1OC; target or system = von Hippel-Lindau disease tumor suppressor, with elongin B, C (VHL, Homo sapiens, UniProt P40337); assay = binding, fluorescence polarization; conditions = 10% DMSO, with: FAM-HIF1α peptide tracer; quantity = IC50; result = 24 ± 2 µM
Structure (SMILES) = O=C(O)c1cc(C(=O)N[C@@H](Cc2ccc(O)cc2)C(=O)O)cc([C@H]2CCN[C@@H]2C(=O)O)c1; target or system = Glutamate receptor ionotropic, NMDA 2C, with GluN1 (Rattus norvegicus, UniProt Q00961); assay = ion current, antagonist, two-electrode voltage clamp; system = Xenopus oocytes; conditions = GluN1/GluN2C, with: glycine 100 µM and glutamate 1 µM; quantity = IC50; result = 9.7 ± 0.48 µM
Structure (SMILES) = COc1cc2ncnc(Nc3ccc(OCc4cccc(F)c4)c(Cl)c3)c2cc1OC; target or system = PKN3 (Homo sapiens, UniProt Q6P5Z2); assay = binding, split-luciferase; quantity = IC50; result = 17 µM
Structure (SMILES) = Cc1ccc(C(NS(=O)(=O)c2cccs2)C(=O)Nc2ccc(Cl)cc2)cc1 (centres unmarked); target or system = Uracil nucleotide/cysteinyl leukotriene receptor, long isoform (GPR17, Homo sapiens, UniProt Q13304); assay = calcium mobilization, antagonist; system = 1321-N1; quantity = IC50; result = 8.66 ± 0.54 µM
Structure (SMILES) = O=C(O)c1ccnc(N2CC3CC(c4ccccc4C(F)(F)F)CC3C2)n1 (centres unmarked); target or system = Transthyretin (TTR, Homo sapiens, UniProt P02766); assay = binding, fluorescence polarization; conditions = with: 25 µM FITC-labelled probe; quantity = IC50; result = 2.5 µM
Structure (SMILES) = CC(=NNC(N)=NO)c1ccc(NC(=O)c2cc3cccc([N+](=O)[O-])c3[nH]2)cc1; target or system = RPS6KA3 (Homo sapiens, UniProt P51812); assay = kinase activity, inhibitor, IMAP fluorescence polarisation; conditions = 60 min; quantity = IC50; result = 47 µM
Structure (SMILES) = Nc1nc2c(ncn2COCCNC(=O)CCCCNC(=O)c2cc3cc(Br)ccc3c(Br)c2O)c(=O)[nH]1; target or system = SAMHD1 (Homo sapiens, UniProt Q9Y3Z3); assay = ssRNA binding, fluorescence anisotropy; conditions = 1 µM protein, with: FAM-labelled 32-mer ssRNA probe; quantity = IC50; result = ~25 µM
Structure (SMILES) = O=C(O)CCC(NS(=O)(=O)c1ccccn1)C(=O)O (centres unmarked); target or system = FOLH1 (Homo sapiens, UniProt Q04609); assay = enzyme activity, inhibitor, HPLC; conditions = 15 min, pH 7.4, 37 °C, 1% Triton X-100, with: 10 mM glutamate dipeptide substrate; quantity = IC50; result = > 100 µM
Structure (SMILES) = O=C(CN1C(=O)C=CC1=O)N1CCN(c2cc(N3CCCC3)nc(N3CCCC3)n2)CC1; target or system = Caspase-1 (CASP1, Homo sapiens, UniProt P29466); assay = inhibitor; conditions = 30 min preincubation; quantity = IC50; result = 0.144 ± 0.037 µM
Structure (SMILES) = N#Cc1ccc2[nH]cc(/C=C/c3cccc([N+](=O)[O-])c3)c2c1; target or system = IDO1; assay = enzyme activity, inhibitor; quantity = IC50; result = > 100 µM
Structure (SMILES) = O=C(CCCn1c(=S)[nH]c2ccccc2c1=O)N1CCN(c2ccccc2O)CC1; target or system = Estrogen receptor (ESR1, Homo sapiens, UniProt P03372); assay = reporter gene, antagonist; system = HEC-1 cells transfected with ERα; conditions = with: estradiol 1 nM; quantity = IC50; result = 4.8 µM
Structure (SMILES) = COc1cccc(C(=O)Nc2ccc(-c3nc4ccccc4[nH]3)cc2)c1; target or system = Moesin, with CD44 (Homo sapiens, UniProt P26038); assay = MSN-CD44 interaction, inhibitor, TR-FRET; conditions = with: CD44; quantity = IC50; result = > 100 µM
Structure (SMILES) = CS(=O)(=O)Oc1cccc(/C=C/c2c[nH]c3ccc(F)cc23)c1; target or system = IDO1; assay = enzyme activity, inhibitor; quantity = IC50; result = > 50 µM
Structure (SMILES) = O=C(c1ccc(O)c(C(F)(F)F)c1)N1Cc2ccccc2C1; target or system = HSP90AA1 (Homo sapiens, UniProt P07900); assay = binding, fluorescence polarization; conditions = with: FITC-geldanamycin tracer; quantity = IC50; result = 7.9 ± 1.18 µM
Structure (SMILES) = CCCCNC(=O)NC1CC=C(c2cc3c(Nc4cc5ncsc5cc4F)ncnc3s2)CC1 (centres unmarked); target or system = RIPK2 (Homo sapiens, UniProt O43353); assay = kinase activity, inhibitor; quantity = IC50; result = 0.008 µM
Structure (SMILES) = COC(=O)[C@@H]1C(C=Nc2cncnc2NC(C)=O)=Cc2cc3c(cc2[C@H]1c1cc(OC)c(OC)c(OC)c1)OCO3; target or system = Leishmania infantum; system = promastigote, iRFP; quantity = EC50; result = 94.5 ± 3 µM
Structure (SMILES) = Cc1ccc(NC(=O)c2cccc(C(F)(F)F)c2)cc1N1Cc2cnc(Nc3cnn(C)c3)nc2N(C)C1=O; target or system = FGFR4 (Homo sapiens, UniProt P22455); assay = enzyme activity, inhibitor, radiometric kinase; quantity = IC50; result = < 0.001 µM
Structure (SMILES) = COc1ccc2nc3ccc(C)cc3c(SCCCN)c2c1; target or system = DYRK2 (Homo sapiens, UniProt Q92630); assay = inhibitor; conditions = with: Woodtide peptide; quantity = IC50; result = 0.43 µM
Structure (SMILES) = CCOC(=O)c1nc2cc(Cl)c(Cl)cc2nc1N1CCN(C(N)=O)CC1; target or system = PGK1 (Homo sapiens, UniProt P00558); assay = enzyme activity, inhibitor, GAPDH-coupled; conditions = with: ATP 1.5 mM, 3-phosphoglycerate 2 mM; quantity = IC50; result = 0.53 ± 0.07 µM
Structure (SMILES) = COc1ccc(NC(=O)CSc2nc(-c3ccc(C)cc3)cc(C(F)(F)F)c2C#N)cc1; target or system = TAAR1 (Homo sapiens, UniProt Q96RJ0); quantity = IC50; result = > 10 µM

A few entries again:
Structure (SMILES) = COc1ccc2nc3ccc(C)cc3c(SCCCN)c2c1; target or system = DYRK2 (Homo sapiens, UniProt Q92630); assay = inhibitor; conditions = with: Woodtide peptide; quantity = IC50; result = 0.43 µM
Structure (SMILES) = CCOC(=O)c1nc2cc(Cl)c(Cl)cc2nc1N1CCN(C(N)=O)CC1; target or system = PGK1 (Homo sapiens, UniProt P00558); assay = enzyme activity, inhibitor, GAPDH-coupled; conditions = with: ATP 1.5 mM, 3-phosphoglycerate 2 mM; quantity = IC50; result = 0.53 ± 0.07 µM
